Published values of several laboratories.
Lines come from different studies, so protocols differ. Numbers after ± are the reported error.
Organism: Staphylococcus aureus

`CCCCc1ccc(N2C(=O)/C(=N\NC(=N)N)c3cc(OC)ccc32)cc1` has an MIC of 6 µg/mL (microbial growth, broth dilution; 18 h).
With `O=[N+]([O-])c1cccc(S(=O)(=O)NC[C@@H](O)[C@@H]2CCc3cc(F)ccc3O2)c1` the MIC was 10.2 µg/mL (microbial growth).
For `CCCCO[C@H]1[C@H](O)[C@@H](N)[C@@H](O[C@H]2[C@H](O[C@@H]3O[C@H](CO)[C@@H](O[C@H]4O[C@@H](CN)[C@@H](O)[C@H](O)[C@H]4N)[C@H]3O)[C@@H](O)[C@H](N)C[C@@H]2N)O[C@@H]1CO`, the MIC was 16 µg/mL (broth microdilution; MRSA isolate AG 045).
`CCOc1ccc(NC(=O)CSc2nc3ccccc3c(=O)n2-c2ccc(S(N)(=O)=O)cc2)cc1` has an MIC of 5 µg/mL (methicillin-resistant; 24 h, 37 °C).
`CN(C)c1cc(CNCc2ccccc2)c(O)c2c1C[C@H]1C[C@H]3[C@H](N(C)C)C(O)=C(C(N)=O)C(=O)[C@@]3(O)C(O)=C1C2=O` gave an MIC of 0.5 µg/mL (RN4250, Tet K efflux).
`CCn1cc[n+](CC)[c]1[Au-]([Cl])([Cl])[Cl]` has an MIC of 1.6 ± 0.7 µM (broth dilution; MRSA DSM 11822; 20 h, 37 °C).
`COc1ccc(NC(=O)C2C(=O)C(c3ccccc3)c3ccc4c(c32)C(=O)c2ccccc2C4=O)cc1` (stereo not drawn) gave an MIC of greater than 100 µg/mL (microbial growth).
`CNC(CC(C)C)C(=O)NC1C(=O)NC(CC(N)=O)C(=O)NC2C(=O)NC3C(=O)NC(C(=O)NC(C(=O)NCCCNC(=N)N)c4cc(O)cc(O)c4-c4cc3ccc4O)C(O)c3ccc(c(Cl)c3)Oc3cc2cc(c3OC2OC(CO)C(O)C(O)C2OC2CC(C)(N)C(O)C(C)O2)Oc2ccc(cc2Cl)C1O` (stereo not drawn) has an MIC of 0.12 µg/mL (MRSA ATCC 43300).
For `CNCc1cc(N(C)C)c2c(c1O)C(=O)C1=C(O)[C@]3(O)C(=O)C(C(N)=O)=C(O)[C@@H](N(C)C)[C@@H]3C[C@@H]1C2`, the MIC was 4 µg/mL (microbial growth, broth dilution).
`Oc1c(Br)cc(Br)c2nc3cc(Br)ccc3nc12` has an MIC of 0.1 µM (broth microdilution; MRSA 44).
With `CC1CCN(CCCN2/C(=C/c3cc(/C=C/c4c[nH]c5ccccc45)[n+](C)c4ccccc34)Sc3ccccc32)CC1` the MIC was 32 µg/mL (microbial growth, broth dilution; MRSA).
`COc1cccc(OC)c1C(=O)N[C@@H]1C(=O)N2[C@@H]1SC(C)(C)[C@@H]2C(=O)O` has an MIC of 2 µg/mL (microbial growth, broth dilution; NEWMAN).
The MIC of `CNC(CC(C)C)C(=O)NC1C(=O)NC(CC(N)=O)C(=O)NC2C(=O)NC3C(=O)NC(C(=O)NC(C(=O)O)c4cc(O)cc(O)c4-c4cc3ccc4O)C(O)c3ccc(c(Cl)c3)Oc3cc2cc(c3OC2OC(CO)C(O)C(O)C2OC2CC(C)(NC(=O)CCCCCCCC[n+]3ccccc3)C(O)C(C)O2)Oc2ccc(cc2Cl)C1O` (stereo not drawn) is reported as 512 µg/mL (agar dilution; MRSA clinical isolate MRSA3).
`CN(C)c1cc(CN2CCCCCC2)c(O)c2c1C[C@H]1C[C@H]3[C@H](N(C)C)C(O)=C(C(N)=O)C(=O)[C@@]3(O)C(O)=C1C2=O` gave an MIC of 1 µg/mL (MRSA 5, Tet M ribosome protection).
The MIC of `CCCCCCCCCc1nc2cc(OC)c(OC)cc2c(=O)n1N` is reported as greater than 100 µM (broth microdilution; RN6390B).

Some of these lines once more:
`CN(C)c1cc(CNCc2ccccc2)c(O)c2c1C[C@H]1C[C@H]3[C@H](N(C)C)C(O)=C(C(N)=O)C(=O)[C@@]3(O)C(O)=C1C2=O` gave an MIC of 0.5 µg/mL (RN4250, Tet K efflux).
